# Assay results from different studies.
# Parts stem from different laboratories: compare values within a part only.
# Sequence of UniProt Q9NRP7 (whole entry, looked up): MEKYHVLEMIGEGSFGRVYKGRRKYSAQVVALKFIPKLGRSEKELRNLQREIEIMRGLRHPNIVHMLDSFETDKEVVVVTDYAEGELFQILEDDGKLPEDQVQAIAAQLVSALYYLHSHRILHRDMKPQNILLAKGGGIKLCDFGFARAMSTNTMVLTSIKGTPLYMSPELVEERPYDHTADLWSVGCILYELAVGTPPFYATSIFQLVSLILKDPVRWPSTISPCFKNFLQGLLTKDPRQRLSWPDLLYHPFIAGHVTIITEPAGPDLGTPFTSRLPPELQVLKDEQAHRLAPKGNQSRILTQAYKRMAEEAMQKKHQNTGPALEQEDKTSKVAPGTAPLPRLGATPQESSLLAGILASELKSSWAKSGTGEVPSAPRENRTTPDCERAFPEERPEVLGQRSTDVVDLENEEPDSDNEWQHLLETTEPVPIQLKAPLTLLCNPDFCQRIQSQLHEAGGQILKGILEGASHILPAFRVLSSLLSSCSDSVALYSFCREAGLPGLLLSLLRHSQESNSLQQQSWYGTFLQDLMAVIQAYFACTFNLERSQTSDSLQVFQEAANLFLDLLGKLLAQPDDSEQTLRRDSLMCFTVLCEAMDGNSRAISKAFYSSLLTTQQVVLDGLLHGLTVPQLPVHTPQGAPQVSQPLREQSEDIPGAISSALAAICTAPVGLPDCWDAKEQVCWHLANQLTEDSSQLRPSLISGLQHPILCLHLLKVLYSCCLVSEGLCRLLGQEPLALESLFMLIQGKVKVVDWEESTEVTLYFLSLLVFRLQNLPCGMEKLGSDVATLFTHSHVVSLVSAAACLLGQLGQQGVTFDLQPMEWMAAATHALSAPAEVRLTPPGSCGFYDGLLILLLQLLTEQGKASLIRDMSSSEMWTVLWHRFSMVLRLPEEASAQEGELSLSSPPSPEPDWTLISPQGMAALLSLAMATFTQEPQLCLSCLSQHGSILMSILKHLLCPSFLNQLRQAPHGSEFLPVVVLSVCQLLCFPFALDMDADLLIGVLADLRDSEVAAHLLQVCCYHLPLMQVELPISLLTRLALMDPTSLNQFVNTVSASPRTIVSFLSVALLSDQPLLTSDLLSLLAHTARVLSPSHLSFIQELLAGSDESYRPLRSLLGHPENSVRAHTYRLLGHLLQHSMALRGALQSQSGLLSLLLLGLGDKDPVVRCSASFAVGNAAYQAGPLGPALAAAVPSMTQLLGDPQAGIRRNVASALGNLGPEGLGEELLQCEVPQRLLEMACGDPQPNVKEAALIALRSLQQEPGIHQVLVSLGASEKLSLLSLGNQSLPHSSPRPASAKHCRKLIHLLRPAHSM
# Sequence of UniProt Q9UL54 (whole entry, looked up): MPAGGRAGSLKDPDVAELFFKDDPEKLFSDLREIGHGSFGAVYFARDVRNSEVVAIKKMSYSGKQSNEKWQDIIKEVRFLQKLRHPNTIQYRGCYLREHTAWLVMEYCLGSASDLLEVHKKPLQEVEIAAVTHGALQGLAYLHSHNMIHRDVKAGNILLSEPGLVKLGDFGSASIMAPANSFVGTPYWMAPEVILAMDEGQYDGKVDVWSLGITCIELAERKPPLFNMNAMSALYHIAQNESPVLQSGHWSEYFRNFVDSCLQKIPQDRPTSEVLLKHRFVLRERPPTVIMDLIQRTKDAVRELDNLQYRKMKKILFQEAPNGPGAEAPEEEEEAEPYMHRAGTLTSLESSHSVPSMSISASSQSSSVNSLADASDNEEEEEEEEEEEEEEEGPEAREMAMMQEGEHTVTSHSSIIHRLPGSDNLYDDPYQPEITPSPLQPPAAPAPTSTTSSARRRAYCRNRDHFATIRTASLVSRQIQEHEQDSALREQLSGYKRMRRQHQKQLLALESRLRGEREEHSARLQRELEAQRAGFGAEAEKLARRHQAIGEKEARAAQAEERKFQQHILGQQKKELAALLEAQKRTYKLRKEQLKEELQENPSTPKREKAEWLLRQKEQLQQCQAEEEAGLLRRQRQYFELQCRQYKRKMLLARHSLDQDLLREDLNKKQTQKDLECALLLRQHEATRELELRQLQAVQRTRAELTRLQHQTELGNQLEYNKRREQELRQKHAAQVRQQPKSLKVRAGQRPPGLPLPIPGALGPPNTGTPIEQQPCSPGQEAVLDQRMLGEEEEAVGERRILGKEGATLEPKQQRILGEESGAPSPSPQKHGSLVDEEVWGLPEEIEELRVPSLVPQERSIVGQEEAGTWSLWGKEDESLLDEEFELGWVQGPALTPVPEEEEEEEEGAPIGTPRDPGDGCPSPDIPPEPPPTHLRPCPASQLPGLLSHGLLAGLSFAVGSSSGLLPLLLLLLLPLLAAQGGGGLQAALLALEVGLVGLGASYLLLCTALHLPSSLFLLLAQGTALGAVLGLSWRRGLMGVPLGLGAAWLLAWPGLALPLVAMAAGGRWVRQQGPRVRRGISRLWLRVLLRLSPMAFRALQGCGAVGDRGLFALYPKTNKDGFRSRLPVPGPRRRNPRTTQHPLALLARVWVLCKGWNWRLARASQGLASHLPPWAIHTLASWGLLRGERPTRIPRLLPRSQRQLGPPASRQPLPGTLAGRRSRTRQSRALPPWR
# Sequence of UniProt Q86Y07 (whole entry, looked up): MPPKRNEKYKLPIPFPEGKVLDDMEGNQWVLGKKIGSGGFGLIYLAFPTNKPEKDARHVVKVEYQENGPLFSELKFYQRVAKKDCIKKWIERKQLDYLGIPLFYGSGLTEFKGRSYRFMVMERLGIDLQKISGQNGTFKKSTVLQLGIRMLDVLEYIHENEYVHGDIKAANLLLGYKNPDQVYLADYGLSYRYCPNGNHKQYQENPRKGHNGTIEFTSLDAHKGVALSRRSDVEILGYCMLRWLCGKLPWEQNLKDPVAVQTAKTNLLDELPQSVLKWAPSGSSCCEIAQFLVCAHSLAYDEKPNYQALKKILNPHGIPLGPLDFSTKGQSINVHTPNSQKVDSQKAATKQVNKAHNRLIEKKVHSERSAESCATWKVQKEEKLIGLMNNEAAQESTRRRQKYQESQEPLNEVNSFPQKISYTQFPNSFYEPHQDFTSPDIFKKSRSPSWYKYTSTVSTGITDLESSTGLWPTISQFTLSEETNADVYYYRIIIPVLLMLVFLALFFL
# Sequence of UniProt P42336 (whole entry, unmodified, looked up): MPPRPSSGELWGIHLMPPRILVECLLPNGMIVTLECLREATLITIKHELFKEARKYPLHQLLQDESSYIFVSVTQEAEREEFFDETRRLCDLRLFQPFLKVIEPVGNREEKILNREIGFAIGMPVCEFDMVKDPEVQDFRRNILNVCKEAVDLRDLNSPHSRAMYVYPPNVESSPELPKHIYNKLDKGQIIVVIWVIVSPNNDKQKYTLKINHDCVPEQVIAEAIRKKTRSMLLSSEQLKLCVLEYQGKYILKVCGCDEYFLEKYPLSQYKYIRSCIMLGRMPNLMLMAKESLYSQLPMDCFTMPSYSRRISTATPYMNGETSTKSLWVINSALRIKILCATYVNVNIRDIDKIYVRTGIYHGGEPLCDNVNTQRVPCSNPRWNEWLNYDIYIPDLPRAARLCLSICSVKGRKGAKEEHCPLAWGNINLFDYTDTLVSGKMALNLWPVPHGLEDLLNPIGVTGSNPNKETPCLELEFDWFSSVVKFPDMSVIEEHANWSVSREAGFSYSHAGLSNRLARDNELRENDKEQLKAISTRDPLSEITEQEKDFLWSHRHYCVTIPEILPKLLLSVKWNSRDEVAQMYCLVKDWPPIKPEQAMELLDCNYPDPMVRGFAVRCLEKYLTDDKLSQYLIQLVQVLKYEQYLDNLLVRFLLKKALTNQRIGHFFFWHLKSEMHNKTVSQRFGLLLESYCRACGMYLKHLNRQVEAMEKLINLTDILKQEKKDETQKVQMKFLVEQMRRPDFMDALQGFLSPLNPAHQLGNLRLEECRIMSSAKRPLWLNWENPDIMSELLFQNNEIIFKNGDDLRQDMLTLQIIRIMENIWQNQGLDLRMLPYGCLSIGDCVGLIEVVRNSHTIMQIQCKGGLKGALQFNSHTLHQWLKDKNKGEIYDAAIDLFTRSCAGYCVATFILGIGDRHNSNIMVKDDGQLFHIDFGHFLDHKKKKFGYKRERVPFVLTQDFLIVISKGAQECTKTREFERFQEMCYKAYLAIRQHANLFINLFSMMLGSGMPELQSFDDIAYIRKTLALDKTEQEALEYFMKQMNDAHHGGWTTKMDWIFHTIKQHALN
# Sequence of UniProt P31152 (whole entry, looked up): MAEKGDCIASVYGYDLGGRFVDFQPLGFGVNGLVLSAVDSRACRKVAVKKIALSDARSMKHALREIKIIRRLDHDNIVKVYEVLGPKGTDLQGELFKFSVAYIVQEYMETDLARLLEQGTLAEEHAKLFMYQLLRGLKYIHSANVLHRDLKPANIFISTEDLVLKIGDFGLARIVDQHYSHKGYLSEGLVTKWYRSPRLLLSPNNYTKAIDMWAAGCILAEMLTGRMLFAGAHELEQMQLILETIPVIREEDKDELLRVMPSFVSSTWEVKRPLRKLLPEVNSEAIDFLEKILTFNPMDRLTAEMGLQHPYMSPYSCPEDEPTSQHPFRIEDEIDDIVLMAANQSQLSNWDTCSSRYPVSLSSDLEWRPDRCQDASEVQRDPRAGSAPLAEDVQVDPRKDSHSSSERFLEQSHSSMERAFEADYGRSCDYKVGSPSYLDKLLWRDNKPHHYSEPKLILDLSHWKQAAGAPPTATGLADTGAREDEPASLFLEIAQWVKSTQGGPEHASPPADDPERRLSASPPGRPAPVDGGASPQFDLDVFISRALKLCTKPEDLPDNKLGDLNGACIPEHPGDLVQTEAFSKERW

# Study 1 — mode: inhibitor; concentration: 10 µM; baseline: control
# Target: Diamine acetyltransferase 1 (Homo sapiens, UniProt P21673)
# Residues (P21673 1-171): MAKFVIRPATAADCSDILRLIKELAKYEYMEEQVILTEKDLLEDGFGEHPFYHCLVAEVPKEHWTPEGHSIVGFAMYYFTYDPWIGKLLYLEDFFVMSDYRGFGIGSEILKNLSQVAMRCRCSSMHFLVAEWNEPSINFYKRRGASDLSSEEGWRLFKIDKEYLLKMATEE
SMILES,remaining activity
CC(C)(O)[C@H]1CC[C@@](C)([C@H]2[C@@H](O)C[C@@]3(C)[C@@H]4C[C@H](O)[C@H]5C(C)(C)[C@@H](O)CC[C@@]56C[C@@]46CC[C@]23C)O1,91.9%
O=C(/C=C/c1ccc(O[C@@H]2O[C@H](CO)[C@@H](O)[C@H](O)[C@H]2O[C@@H]2OC[C@](O)(CO)[C@H]2O)cc1)c1ccc(O)cc1O,81.6%
C=C(C)[C@@H]1CC[C@]2(C(=O)O)CC[C@]3(C)[C@H](CC[C@@H]4[C@@]5(C)CCC(=O)C(C)(C)[C@@H]5CC[C@]43C)[C@@H]12,90.9%
NCCCNCCCCNCCCN,83.7%
CC(C)=C1CC[C@@H](C)CC1=O,92.6%
CCCCCCCCCCCCCCCCCCCCO,91.6%

# Study 2 — medium: 1,9-decadiene/PBS; pH: 7.4
Structure (SMILES),logD
CC(C)C[C@@H]1NC(=O)[C@H](C(C)C)NC(=O)[C@H](C)NC(=O)[C@H](CC(C)C)NC(=O)[C@H](C(C)C)NC(=O)[C@H](CC(C)C)NC(=O)[C@@H](CC(C)C)NC1=O,0.897
CC(C)C[C@@H]1NC(=O)[C@H](CC(C)C)NC(=O)[C@@H](CC(C)C)NC(=O)[C@H](C(C)C)NC(=O)[C@H](C)NC(=O)[C@H](Cc2cscn2)NC(=O)[C@H](CCC(=O)N2CCCC2)NC1=O,-2.32
CC(C)C[C@@H]1NC(=O)[C@H](CC(C)C)NC(=O)[C@H](CC(C)C)NC(=O)[C@H](CC(C)C)NC(=O)[C@@H](Cc2cscn2)NC(=O)[C@H](C)NC(=O)[C@H](CCC(=O)N2CCCC2)NC1=O,-1.71
CC(C)C[C@@H]1NC(=O)[C@H](C)NC(=O)[C@H](Cc2cscn2)NC(=O)[C@H](C)NC(=O)[C@H](C(C)C)NC(=O)[C@H](CC(C)C)NC(=O)[C@@H](CC(C)C)NC1=O,-2.15
CC(C)C[C@@H]1NC(=O)[C@H](CC(C)C)NC(=O)[C@@H](CC(C)C)NC(=O)[C@H](C(C)C)NC(=O)[C@@H](Cc2cscn2)NC(=O)[C@@H](CC(C)C)NC(=O)[C@H](C)NC1=O,-0.344
CC(C)C[C@@H]1NC(=O)[C@H](C)NC(=O)[C@@H](CC(C)C)NC(=O)[C@H](C)NC(=O)[C@H](CC(C)C)NC(=O)[C@H](CC(C)C)NC(=O)[C@H](CC(C)C)NC1=O,0.564
CC(C)C[C@@H]1NC(=O)[C@H](CC(C)C)NC(=O)[C@@H](CC(C)C)NC(=O)[C@H](C(C)C)NC(=O)[C@H](C(C)C)NC(=O)[C@H](Cc2cscn2)NC(=O)[C@H](C)NC1=O,-0.803
CC(C)C[C@@H]1NC(=O)[C@H](C)NC(=O)[C@@H](CC(C)C)NC(=O)[C@@H](CCC(=O)N2CCCC2)NC(=O)[C@H](CC(C)C)NC(=O)[C@@H](CC(C)C)NC(=O)[C@H](CC(C)C)NC1=O,-0.148
CC(C)C[C@@H]1NC(=O)[C@H](Cc2cscn2)NC(=O)[C@@H](CC(C)C)NC(=O)[C@H](C(C)C)NC(=O)[C@H](CC(C)C)NC(=O)[C@@H](CC(C)C)NC(=O)[C@H](CC(C)C)NC1=O,1.12

# Study 3 — host: mouse; medium: microsomes or S9; concentration: 2 µM; time: 0.5 h
Structure (SMILES),remaining compound [%]
COc1c(Cl)c(Nc2ccc3[nH]ncc3c2)nc(NC(C)C)c1Cl,1.01
CN(CC(C)(CO)CO)c1ccnc(C(C)(C)C)n1,60.4
COCCOc1cc(=O)n2c(c1C(=O)NCc1ccc(OC)cc1)CCOCC2,92.3
CC1NC(=O)CCC1NS(=O)(=O)c1cccc2ccoc12 (stereo not drawn),75.3
O=C(NCCCN1CCN(c2ccccc2F)CC1)c1ccc2c(c1)N(Cc1ccccc1)C(=O)c1ccccc1[S+]2[O-] (stereo not drawn),0.499
CCn1cc(C(=O)NCc2ccc3c(c2)OCO3)c(=O)c2cc(F)c(N3CCN(C)CC3)cc21,32.3
CC1CCN2c3cc(Cl)ccc3CC3(C(=O)OC(C)(C)OC3=O)C2C1 (stereo not drawn),> 100

# Study 4 — read-out: cell-free assay; method: competition with immobilised ligand; concentration: 1 µM
# SMILES: CNCc1ccccc1-c1csc([C@@H](C)Nc2nc(C)nc3cc(OC)c(OC)cc23)c1
target,remaining binding
"Tyrosine-protein kinase ABL1, phosphorylated (ABL1, Homo sapiens, UniProt P00519, Y253F)",94%
"ERBB4 (Homo sapiens, UniProt Q15303)",97%
"EGFR (Homo sapiens, UniProt P00533, L858R/T790M)",93%
"SRPK1 (Homo sapiens, UniProt Q96SB4)",90%
"PIK3CG (Homo sapiens, UniProt P48736)",67%
"PIK3CA (Homo sapiens, UniProt P42336, E545K)",78%
"TAOK2 (Homo sapiens, UniProt Q9UL54)",86%
"COQ8B (Homo sapiens, UniProt Q96D53)",65%
"MET (Homo sapiens, UniProt P08581, Y1235D)",100%
"STK36 (Homo sapiens, UniProt Q9NRP7)",100%
"MAPK4 (Homo sapiens, UniProt P31152)",94%
"MKNK1 (Homo sapiens, UniProt Q9BUB5)",83%
"VRK2 (Homo sapiens, UniProt Q86Y07)",89%
"WNK1 (Homo sapiens, UniProt Q9H4A3)",88%

# Some of these lines once more (study 2):
Structure (SMILES),logD
CC(C)C[C@@H]1NC(=O)[C@H](CC(C)C)NC(=O)[C@H](CC(C)C)NC(=O)[C@H](CC(C)C)NC(=O)[C@@H](Cc2cscn2)NC(=O)[C@H](C)NC(=O)[C@H](CCC(=O)N2CCCC2)NC1=O,-1.71
CC(C)C[C@@H]1NC(=O)[C@H](C)NC(=O)[C@H](Cc2cscn2)NC(=O)[C@H](C)NC(=O)[C@H](C(C)C)NC(=O)[C@H](CC(C)C)NC(=O)[C@@H](CC(C)C)NC1=O,-2.15
CC(C)C[C@@H]1NC(=O)[C@H](CC(C)C)NC(=O)[C@@H](CC(C)C)NC(=O)[C@H](C(C)C)NC(=O)[C@@H](Cc2cscn2)NC(=O)[C@@H](CC(C)C)NC(=O)[C@H](C)NC1=O,-0.344
CC(C)C[C@@H]1NC(=O)[C@H](C)NC(=O)[C@@H](CC(C)C)NC(=O)[C@H](C)NC(=O)[C@H](CC(C)C)NC(=O)[C@H](CC(C)C)NC(=O)[C@H](CC(C)C)NC1=O,0.564
CC(C)C[C@@H]1NC(=O)[C@H](CC(C)C)NC(=O)[C@@H](CC(C)C)NC(=O)[C@H](C(C)C)NC(=O)[C@H](C(C)C)NC(=O)[C@H](Cc2cscn2)NC(=O)[C@H](C)NC1=O,-0.803
